Measured values collected from several papers.
Protocols differ between the studies behind these lines. Several values in a cell are separate wells, animals, samples, runs or records. ± marks the error that the study gave.
Sequence of UniProt Q15303 (whole entry, looked up): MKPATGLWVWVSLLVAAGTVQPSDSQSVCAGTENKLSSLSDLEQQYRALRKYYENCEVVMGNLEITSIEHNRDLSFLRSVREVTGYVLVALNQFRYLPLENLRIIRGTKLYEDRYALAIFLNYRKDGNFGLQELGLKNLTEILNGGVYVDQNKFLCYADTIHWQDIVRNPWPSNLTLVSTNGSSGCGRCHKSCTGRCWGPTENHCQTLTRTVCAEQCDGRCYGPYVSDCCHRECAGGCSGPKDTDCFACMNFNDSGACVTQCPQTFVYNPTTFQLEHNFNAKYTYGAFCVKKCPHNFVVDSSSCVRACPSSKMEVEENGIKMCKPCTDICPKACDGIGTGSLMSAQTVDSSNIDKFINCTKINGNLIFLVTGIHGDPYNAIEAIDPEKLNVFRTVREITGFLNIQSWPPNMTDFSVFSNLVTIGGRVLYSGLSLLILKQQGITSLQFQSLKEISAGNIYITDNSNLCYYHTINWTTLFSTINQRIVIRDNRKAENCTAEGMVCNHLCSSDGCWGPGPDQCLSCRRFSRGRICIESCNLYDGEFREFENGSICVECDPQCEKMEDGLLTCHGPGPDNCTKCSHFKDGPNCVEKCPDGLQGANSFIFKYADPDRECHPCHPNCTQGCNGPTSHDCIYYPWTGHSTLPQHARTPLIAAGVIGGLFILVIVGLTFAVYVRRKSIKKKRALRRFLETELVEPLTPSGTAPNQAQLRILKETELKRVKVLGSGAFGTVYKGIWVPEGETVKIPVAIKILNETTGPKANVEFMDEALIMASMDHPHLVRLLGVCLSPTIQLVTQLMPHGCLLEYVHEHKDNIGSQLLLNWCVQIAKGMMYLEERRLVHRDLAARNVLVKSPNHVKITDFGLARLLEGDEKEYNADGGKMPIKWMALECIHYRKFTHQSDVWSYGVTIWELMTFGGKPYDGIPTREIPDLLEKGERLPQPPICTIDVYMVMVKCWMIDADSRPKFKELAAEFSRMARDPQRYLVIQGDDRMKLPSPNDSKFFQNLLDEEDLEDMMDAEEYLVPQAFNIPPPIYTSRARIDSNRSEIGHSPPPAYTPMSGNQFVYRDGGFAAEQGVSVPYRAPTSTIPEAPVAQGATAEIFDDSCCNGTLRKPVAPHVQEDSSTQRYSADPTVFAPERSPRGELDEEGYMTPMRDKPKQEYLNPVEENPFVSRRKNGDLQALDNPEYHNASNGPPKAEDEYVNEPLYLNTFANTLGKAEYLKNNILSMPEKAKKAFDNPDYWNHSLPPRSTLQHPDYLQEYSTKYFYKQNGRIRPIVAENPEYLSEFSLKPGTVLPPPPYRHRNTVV
Sequence of UniProt P16257 (whole entry, looked up): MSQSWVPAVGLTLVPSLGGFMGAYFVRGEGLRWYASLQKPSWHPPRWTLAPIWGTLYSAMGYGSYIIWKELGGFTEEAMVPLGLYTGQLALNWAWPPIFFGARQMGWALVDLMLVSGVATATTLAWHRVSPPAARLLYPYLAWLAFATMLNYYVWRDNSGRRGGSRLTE
Sequence of UniProt P29317 (whole entry, looked up): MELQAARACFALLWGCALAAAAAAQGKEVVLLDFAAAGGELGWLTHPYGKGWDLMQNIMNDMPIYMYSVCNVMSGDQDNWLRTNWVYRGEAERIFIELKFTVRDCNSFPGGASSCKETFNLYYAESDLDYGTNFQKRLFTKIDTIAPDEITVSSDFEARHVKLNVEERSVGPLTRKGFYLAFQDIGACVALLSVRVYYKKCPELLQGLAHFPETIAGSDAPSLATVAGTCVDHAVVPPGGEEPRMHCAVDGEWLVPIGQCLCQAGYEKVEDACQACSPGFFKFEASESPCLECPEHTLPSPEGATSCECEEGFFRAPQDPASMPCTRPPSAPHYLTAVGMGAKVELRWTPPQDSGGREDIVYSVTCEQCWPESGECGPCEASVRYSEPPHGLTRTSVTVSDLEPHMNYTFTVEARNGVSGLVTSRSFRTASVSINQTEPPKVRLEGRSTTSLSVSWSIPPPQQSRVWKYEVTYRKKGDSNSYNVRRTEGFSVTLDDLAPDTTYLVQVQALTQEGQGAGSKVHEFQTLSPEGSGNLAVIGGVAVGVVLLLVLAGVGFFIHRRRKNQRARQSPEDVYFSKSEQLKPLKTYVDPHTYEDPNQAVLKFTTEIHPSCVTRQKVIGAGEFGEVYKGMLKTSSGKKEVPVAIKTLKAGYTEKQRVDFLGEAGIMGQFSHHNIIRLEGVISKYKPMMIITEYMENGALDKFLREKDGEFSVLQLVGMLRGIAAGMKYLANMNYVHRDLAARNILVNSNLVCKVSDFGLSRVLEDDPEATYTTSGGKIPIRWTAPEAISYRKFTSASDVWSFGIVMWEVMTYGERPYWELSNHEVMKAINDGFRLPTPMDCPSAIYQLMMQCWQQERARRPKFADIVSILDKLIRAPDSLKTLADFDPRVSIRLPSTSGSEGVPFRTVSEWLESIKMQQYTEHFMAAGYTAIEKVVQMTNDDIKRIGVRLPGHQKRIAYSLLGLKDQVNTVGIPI
Sequence of UniProt P08246 (whole entry, looked up): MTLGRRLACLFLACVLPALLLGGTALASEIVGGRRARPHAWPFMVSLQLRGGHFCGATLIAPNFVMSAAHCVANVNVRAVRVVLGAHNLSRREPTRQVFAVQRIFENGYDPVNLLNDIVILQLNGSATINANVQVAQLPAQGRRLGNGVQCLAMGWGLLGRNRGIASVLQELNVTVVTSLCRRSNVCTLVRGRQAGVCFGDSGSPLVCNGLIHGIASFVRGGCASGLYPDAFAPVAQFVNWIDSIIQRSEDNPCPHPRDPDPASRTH
Sequence of UniProt P17931 (whole entry, unmodified, looked up): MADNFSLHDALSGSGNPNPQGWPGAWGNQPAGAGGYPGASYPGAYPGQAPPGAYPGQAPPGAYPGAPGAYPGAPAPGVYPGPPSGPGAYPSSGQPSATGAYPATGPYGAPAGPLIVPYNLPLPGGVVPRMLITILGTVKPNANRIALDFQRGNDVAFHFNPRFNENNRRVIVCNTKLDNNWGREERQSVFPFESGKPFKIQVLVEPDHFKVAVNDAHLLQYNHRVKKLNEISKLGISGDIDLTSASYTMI
Sequence of UniProt P10275 (whole entry, looked up): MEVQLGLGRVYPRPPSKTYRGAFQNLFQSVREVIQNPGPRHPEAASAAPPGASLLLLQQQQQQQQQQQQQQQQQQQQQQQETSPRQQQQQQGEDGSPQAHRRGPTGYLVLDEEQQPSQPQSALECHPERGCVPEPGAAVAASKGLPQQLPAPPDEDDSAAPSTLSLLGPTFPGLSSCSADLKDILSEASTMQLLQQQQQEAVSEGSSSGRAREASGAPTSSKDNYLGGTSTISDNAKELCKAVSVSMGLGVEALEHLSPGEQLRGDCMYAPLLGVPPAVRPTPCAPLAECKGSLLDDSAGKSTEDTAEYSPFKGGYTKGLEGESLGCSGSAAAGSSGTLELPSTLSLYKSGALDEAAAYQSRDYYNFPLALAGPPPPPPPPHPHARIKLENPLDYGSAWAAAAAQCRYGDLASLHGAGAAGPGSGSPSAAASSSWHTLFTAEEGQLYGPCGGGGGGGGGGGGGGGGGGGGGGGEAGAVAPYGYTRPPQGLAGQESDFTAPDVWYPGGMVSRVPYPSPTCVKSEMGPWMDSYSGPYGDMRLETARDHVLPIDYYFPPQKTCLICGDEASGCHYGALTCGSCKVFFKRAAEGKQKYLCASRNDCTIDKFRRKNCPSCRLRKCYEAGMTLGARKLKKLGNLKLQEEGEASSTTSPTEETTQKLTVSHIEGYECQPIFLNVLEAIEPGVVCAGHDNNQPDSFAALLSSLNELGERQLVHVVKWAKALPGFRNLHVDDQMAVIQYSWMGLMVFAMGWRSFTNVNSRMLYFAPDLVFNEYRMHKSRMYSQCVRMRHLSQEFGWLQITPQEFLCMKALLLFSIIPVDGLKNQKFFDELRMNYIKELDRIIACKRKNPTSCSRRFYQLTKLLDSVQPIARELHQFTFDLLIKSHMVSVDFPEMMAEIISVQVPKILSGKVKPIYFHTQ
Sequence of UniProt P40337 (whole entry, unmodified, looked up): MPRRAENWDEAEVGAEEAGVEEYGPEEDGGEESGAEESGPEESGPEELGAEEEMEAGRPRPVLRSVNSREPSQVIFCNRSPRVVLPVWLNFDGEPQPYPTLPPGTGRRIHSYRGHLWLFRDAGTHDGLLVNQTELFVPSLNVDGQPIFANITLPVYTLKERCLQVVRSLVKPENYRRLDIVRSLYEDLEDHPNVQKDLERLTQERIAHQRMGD
Sequence of UniProt P98170 (whole entry, looked up): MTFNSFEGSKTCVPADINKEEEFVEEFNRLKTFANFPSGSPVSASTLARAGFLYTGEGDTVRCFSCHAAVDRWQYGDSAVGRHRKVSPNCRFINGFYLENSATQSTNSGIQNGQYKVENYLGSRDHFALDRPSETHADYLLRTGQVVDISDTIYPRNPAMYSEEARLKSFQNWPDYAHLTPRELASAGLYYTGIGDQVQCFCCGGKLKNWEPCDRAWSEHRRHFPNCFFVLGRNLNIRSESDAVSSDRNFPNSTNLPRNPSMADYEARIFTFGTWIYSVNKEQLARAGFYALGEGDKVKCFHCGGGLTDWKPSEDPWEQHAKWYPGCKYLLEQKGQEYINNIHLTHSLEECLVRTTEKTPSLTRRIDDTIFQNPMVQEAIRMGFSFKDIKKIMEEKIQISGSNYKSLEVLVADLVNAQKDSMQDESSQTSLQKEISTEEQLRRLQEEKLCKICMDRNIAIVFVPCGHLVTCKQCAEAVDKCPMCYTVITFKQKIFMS

Compound = CCCN(CC(=O)N(CCC)CC(=O)N(CCC)CC(=O)N(CCC)CC(=O)N(CC(=O)N(CCC)CC(=O)N(CCC)CC(=O)N(CCC)CC(=O)N(CCC)CC(=O)N(CC(=O)N(CCC)CC(=O)N(CCC)CC(=O)N(CCC)CC(=O)N(CCC)CC(=O)N(CC(N)=O)Cc1cn(CCCNC(=O)CCCOc2cccc(-c3nc4ccc(-c5nc6ccc(N7CCN(C)CC7)cc6[nH]5)cc4[nH]3)c2)nn1)Cc1cn(CCCNC(=O)CCCOc2cccc(-c3nc4ccc(-c5nc6ccc(N7CCN(C)CC7)cc6[nH]5)cc4[nH]3)c2)nn1)Cc1cn(CCCNC(=O)CCCOc2cccc(-c3nc4ccc(-c5nc6ccc(N7CCN(C)CC7)cc6[nH]5)cc4[nH]3)c2)nn1)C(=O)CNCc1cn(CCCNC(=O)CCCOc2cccc(-c3nc4ccc(-c5nc6ccc(N7CCN(C)CC7)cc6[nH]5)cc4[nH]3)c2)nn1; target = MBNL1–r(CUG)109 complex; test = MBNL1 displacement; system = 0.65 pmol r(CUG)109; setting = unit not given, added: yeast tRNA 3.7 µM; scale = baseline: monomer 2 IC50 per module; quantity = multivalent effect; value = 71
Compound = CCc1cc(C)n2nc(-c3ccc(OCC[18F])cc3)c(CC(=O)N(CC)CC)c2n1; target = Tspo (Rattus norvegicus, UniProt P16257); test = two-tissue compartment model; system = rat C6 glioma model, tumor; setting = 60 min dynamic PET; quantity = k2 efflux rate constant; value = 2.36 ± 0.617 min⁻¹
Compound = NC(=O)C1CCNC(=O)C(CCCNC(=O)c2cnccn2)NC(=O)C(CC2CCCCC2)NC(=O)C(CC=Cc2ccccc2)NC(=O)C=CC(=O)N1 (stereo not shown); target = ERBB4 (Homo sapiens, UniProt Q15303); test = DNA-templated library selection; setting = one selection round; quantity = enrichment factor; value = 1.3
Compound = O=P(O)(O)O[C@@H]1[C@@H](O)[C@H](O)[C@H](O)[C@H](O)[C@H]1OP(=O)(O)O; target = Itpr1 (Rattus norvegicus, UniProt P29994, del318-332/R504Q); test = Ca2+ release, agonist; system = permeabilized DT40 cells; quantity = Hill coefficient; value = 0.9 ± 0.2
Compound = CCCCCCCCSc1nc2c([nH]1)c(=S)n(C)c(=S)n2C; target = Androgen receptor (AR, Homo sapiens, UniProt P10275); test = reporter gene, antagonist, PSA-luciferase; system = HeLa-A6; setting = 10 µM, 24 h, added: 5 nM dihydrotestosterone; scale = baseline: maximal activity; quantity = remaining activity; value = 86%
Compound = CN[C@@H](C)C(=O)N[C@H]1CCCCNC(=O)[C@H](Cc2ccccc2)NC(=O)[C@@H]2CCCN2C(=O)[C@@H](NC(=O)[C@H](C)NC)CCCCNC(=O)[C@H](Cc2ccccc2)NC(=O)[C@@H]2CCCN2C1=O; target = E3 ubiquitin-protein ligase XIAP, linker-BIR2-BIR3 (XIAP, Homo sapiens, UniProt P98170); test = binding, fluorescence polarization; setting = BIR2-BIR3 protein; quantity = Hill slope; value = ~0.4
Compound = Cc1cc(CC(=O)N2C[C@H](O)C[C@H]2C(=O)NCc2ccccc2)on1; target = von Hippel-Lindau disease tumor suppressor, with Elongin B/C (VHL, Homo sapiens, UniProt P40337); test = isothermal titration calorimetry; setting = 25 °C; quantity = entropic term (−TΔS); value = 7.8 ± 0.2 kcal/mol
Compound = O=C([O-])CN1CCN(CC(=O)[O-])CCN(C(CCC(=O)NCCCCCN(CCCC[C@H](NC(=O)N[C@@H](CCC(=O)O)C(=O)O)C(=O)O)C(=O)c2ccc(I)cc2)C(=O)O)CCN(CC(=O)[O-])CC1.[68Ga+3] (stereo partly shown); target = FOLH1 (Homo sapiens, UniProt Q04609); test = PET/CT; system = prostate cancer patients, bone metastases; scale = baseline: bone metastases over liver; quantity = tumour-to-normal tissue ratio; value = 12.7 ± 12.1
Compound = O=C(Nc1ccc(C(=O)Nc2ccc(C(=O)Nc3ccc(S(=O)(=O)O)c4cc(S(=O)(=O)O)cc(S(=O)(=O)O)c34)cc2)cc1)Nc1ccc(C(=O)Nc2ccc(C(=O)Nc3ccc(S(=O)(=O)O)c4cc(S(=O)(=O)O)cc(S(=O)(=O)O)c34)cc2)cc1; target = Neutrophil elastase (ELANE, Homo sapiens, UniProt P08246); test = substrate S-1384 hydrolysis; setting = pH 7.4, 37 °C, enzyme 600 nM; quantity = Km; value = 225 ± 34.5 µM
Compound = COc1ccc(-c2cc(C(F)(F)F)nc(S(=O)(=O)CCCC(=O)Nc3ccc(F)cc3F)n2)cc1OC; target = GLP1R (Homo sapiens, UniProt P43220); test = allosteric modulator; system = HEK-293T overexpressing receptor; scale = baseline: GLP1R KB over SCTR KB; quantity = affinity ratio; value = 15 to 200 fold
Compound = C=C1CN(S(=O)(=O)c2ccc(C)cc2)CCCN(Cc2ccccc2)CCCN(S(=O)(=O)c2ccc(C)cc2)C1; target = CD4 (Homo sapiens, UniProt P01730); test = SILAC mass spectrometry; system = SUP-T1, crude membrane fraction; setting = 10 µM, 17 h, forward labelling; scale = baseline: DMSO over compound; quantity = protein level ratio; value = 3.63 and > 3
Compound = COc1cc(C(=O)NC2CCC(N3CCN(CC4CCC5(CCCC5)C4)CC3)CC2)c(F)cc1Nc1ncc2c(n1)N(C1CCCC1(F)F)CC(F)(F)C(=O)N2C (stereo not shown); target = EPHA2 (Homo sapiens, UniProt P29317); test = cell-free assay, TR-FRET; setting = 10 µM; quantity = inhibition; value = 0.61%
Compound = CC(=O)N[C@H]1[C@@H](O[C@H](C)[C@H](NC(=O)[C@@H](NC(=O)CNC(=O)[C@@H](N)Cc2c[nH]cn2)C(C)C)C(=O)N[C@@H](CO)C(=O)N[C@@H](C)C(=O)N2CCC[C@H]2C(=O)N[C@@H](CC(=O)O)C(N)=O)O[C@H](CO)[C@H](O)[C@@H]1O[C@@H]1O[C@H](CO)[C@H](O)[C@H](O)[C@H]1O; target = Galectin-3 (LGALS3, Homo sapiens, UniProt P17931); test = binding, isothermal titration calorimetry; setting = full-length protein; quantity = –TΔS; value = -3.4 kcal/mol

Repeated from above:
Compound = O=P(O)(O)O[C@@H]1[C@@H](O)[C@H](O)[C@H](O)[C@H](O)[C@H]1OP(=O)(O)O; target = Itpr1 (Rattus norvegicus, UniProt P29994, del318-332/R504Q); test = Ca2+ release, agonist; system = permeabilized DT40 cells; quantity = Hill coefficient; value = 0.9 ± 0.2
